# Assay results of several laboratories.
# Numbered parts are unrelated; each lists some results of a single study. Changes are numbered by the printed parent chain.

# Study 1
# Target: RNA binding protein fox-1 homolog 2, RRM domain, GST-SBP tag (RBFOX2, Homo sapiens, UniProt O43251-10, residues 100-194)
# Technique: RNA Bind-n-Seq
# Form: RNA
# Sample: in vitro
# Tested at: 365 nM
# Notes: natural RNA segment, single round, ends assumed
# Baseline: no-protein control
# Reading: higher = stronger binding
# Construct (chain): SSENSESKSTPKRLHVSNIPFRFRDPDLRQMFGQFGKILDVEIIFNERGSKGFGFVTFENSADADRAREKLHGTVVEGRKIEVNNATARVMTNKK
Sequence,RBNS enrichment (R)
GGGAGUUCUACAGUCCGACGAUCUUUUGAACGUUGGGUUUUUUGUUGGAAGAAACUUGGAUGAAUCUGUCAUGUCAUUAACAGAACUGAAAUAUUCUAUUGUAAGACGUGCAUUUGCGGUUAGAAUGGUCUUGUGGAAUUCUCGGGUGCCAA,1.11
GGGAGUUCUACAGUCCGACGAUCGCUGCCUGUGGUCUCCUUCCGGCUGUGGCUGACAGUGGCUCUGGCCAGGGUUGCUUGGAGAAGGCUCAGUGUGCCUGGGACAGGGCUUACCACCUGCCACCAAGGUUUCCUGGAAUUCUCGGGUGCCAA,0.513
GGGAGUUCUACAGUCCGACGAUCUAGGCCCGAGCUGCAUUGCCGGCCUUCCUCGGGCCAACUGGCAGCCCAGGAGUGGGGAGGCUUUGGCCAGGGAUGCUGCCACUUGUGCGUGAGUCCGCGGCUGGCCCUUGUGGAAUUCUCGGGUGCCAA,0.336
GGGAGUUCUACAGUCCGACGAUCGUUUCCCAGAAAAUGUGGAGCCAGAGAGAAACAGGCGGACGUGUGUUAGUUACCACGAUGGUGUUUAAAUCAACACCCUAGCACGCUACCUGUCGGCCUGUUGGUGUCUGUGGAAUUCUCGGGUGCCAA,0.263
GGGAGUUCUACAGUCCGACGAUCAAUCUCAUAUUGGAGAGUGAAUGUCGUUAAGUAUUUCUGAAAUGUUUCUAAAAAAUGAACAUGAAAAAAAUAAGGUAUUUUCUCCCUAGCUUCUCAUUACAGUAUUUCUAUGGAAUUCUCGGGUGCCAA,0.377
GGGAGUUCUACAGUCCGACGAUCUGGCCCCACGUGUGUGGUGUUUGUGUGUCUGUGCCUGGCCAAGGGAGGUGCCAACACUGGGCUUGCCACAGCCCCAGGAGAGGAAUUUGGGGCCUAGGAACCGAGGGCACUGGAAUUCUCGGGUGCCAA,0.602
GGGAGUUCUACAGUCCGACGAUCUUCAGCUGCCUCACUUCCUGCAAGAUUGGCCUGUGGCAUCUUUGCCUUGGGUGUUGGCCACAGGGUCAAGGGACUCUGGCCUCAGCCCAGAAGUGAGGGGAAGCUAUACAUGGAAUUCUCGGGUGCCAA,1.28
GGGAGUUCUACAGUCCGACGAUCCUAAAAAGCUCUGAAGUGUUUGUAUAUUUGAAAUACCUCAAUAAAGAGAGAGCUCAUUGACUGUAAAGAGAUGCUGGGGCUUUCUGUACAAGGCUAGCAUCUGGGUGCUGUGGAAUUCUCGGGUGCCAA,0.502
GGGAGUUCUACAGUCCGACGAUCCAAAUUUUAAGUCUUUCCCAGGUAUGUCAGUCGAGUUGCCAUGAAUCCUCACCUGUAGGAGUUUCUGGGAUUCAUUUUAAGGAAACUGGAAGAAAAUUAAUGUUUUAAUGUGGAAUUCUCGGGUGCCAA,0.733

# Study 2
# Target: RING finger protein unkempt homolog, zinc fingers 1-6, GST-SBP tag (UNK, Homo sapiens, UniProt Q9C0B0, residues 30-357)
# Chain of UniProt Q9C0B0 (30-357, looked up): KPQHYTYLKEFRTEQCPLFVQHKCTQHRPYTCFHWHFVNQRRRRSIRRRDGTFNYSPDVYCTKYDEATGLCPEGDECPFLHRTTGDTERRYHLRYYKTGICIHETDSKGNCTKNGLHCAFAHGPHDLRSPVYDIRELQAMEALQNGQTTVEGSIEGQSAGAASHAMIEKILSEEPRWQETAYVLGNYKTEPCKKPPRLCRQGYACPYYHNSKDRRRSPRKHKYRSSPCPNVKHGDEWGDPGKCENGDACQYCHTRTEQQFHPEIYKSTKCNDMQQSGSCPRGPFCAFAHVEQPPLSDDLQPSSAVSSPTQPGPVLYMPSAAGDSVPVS
# Technique: RNA Bind-n-Seq
# Form: RNA
# Sample: in vitro
# Tested at: not given
# Notes: RNA with constant flanks, ends assumed
# Baseline: input RNA pool
# Reading: higher = stronger binding
Sequence,bound/input enrichment
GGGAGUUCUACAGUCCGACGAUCAAUAUGAGGGCCAGGCAGCAGGCCAAGCGAGAAGCUUGCAGUGAUGCCAUGUCUGGAGCUACCGAUACAAAUAAGAAAGAGUCCUGGUUCUUGCCUGAAGAGAAAGCUAAUGUUUUUUCACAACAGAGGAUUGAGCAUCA,0.131 ratio
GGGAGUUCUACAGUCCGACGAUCUUUUUUACAUUUUUUGGGCAGCAAUUUAAAUGUUAUGACUAUGUAAACUACUUCUCUUGUCCGGUAAUUUUUUUCACCUAGAUUUUUUUCCCAAUUGAGAAAAAUAUAUACUAAACAAAACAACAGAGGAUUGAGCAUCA,2.24 ratio
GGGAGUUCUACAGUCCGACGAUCUUUCGCUUGGCGCUGGGCAGCUUCGUGGAGGAGUACAACAACAAGGUUCAGCUUGUUGGUUCCGAUGAGGAGAGUUCAGAGUUUAUUUGCAGAAACACCUUUGACCACCCAUACCCCACCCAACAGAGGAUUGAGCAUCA,0.178 ratio
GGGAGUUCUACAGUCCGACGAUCACCCUCAUCAACAUCCCAGCCCUAAACGACAGCGACUCUGAAGUGGAGGAUAUCUCGGAAACCGAGUCCAACCGGUCUUUCUCUCCAGAGGAGAGACGCCAGCAGUAUUCUGAUCAGGAUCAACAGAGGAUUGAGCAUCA,0.143 ratio
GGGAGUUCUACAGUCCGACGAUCAAGAGUGCAGACGACUUUAUAGAUAAGCACAUUGCUGAAUUAAUAUUUUACAUGGAAGAACUCCGAGCACAUGUGAGGAAAUACGGACCUGUAAUGCAGAGGUAUUACGUGCAGUACCUUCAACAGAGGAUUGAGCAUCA,0.631 ratio
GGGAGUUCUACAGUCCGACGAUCCCAGAGCUCAAAUACCCAAAAGGAGCUGGAAGAGUCGCGUUUUCUAAUCAACAGAGUUACACCGCUGCUAUCAGUGCCCGCUUUGUUCAGCUGCAGCAUGGAGAGAUAGAUAAACGGGUGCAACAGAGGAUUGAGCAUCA,0.181 ratio
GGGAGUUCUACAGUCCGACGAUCUGCUUUACUGGAAAGACCCAGAAUAUGCCAAGUAUCUAAAGUACCCUCAGUGUUUACACAUGUCCGAGCUGCUCCAAUAUGAACACUUCCGAAAGGAGCUGGUGAAUGCUCAGUGUGCGACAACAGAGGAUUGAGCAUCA,0.117 ratio
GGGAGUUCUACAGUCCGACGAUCGUUCGGGGUAUUUUGUUGGGUGCUUUAGGAGGAGAGAAGAGGAGGACCUUGUCCUCAUCCCCGCCGUUUGGCUGGACUUGUACUGGCCGUUGGAAACCCCCAAGUACAUUUCCGUGUGGACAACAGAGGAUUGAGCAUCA,0.362 ratio
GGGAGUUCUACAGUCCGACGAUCUCCCAGCCCUAGUGACCUUGUCUUCCCAUGGGCUUUUUUCCCUUCCUAGUGUCUGCAGGCCCGGUGCCUCCUCCAUAGGUGGUCCUGCUUUCUGUUCCUGGGGUUAGGGUGGCCCUCUCCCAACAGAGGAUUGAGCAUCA,0.378 ratio
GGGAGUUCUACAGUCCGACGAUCGUAGAAUUCUGUCAUCCUGAAGACCAGCAGCUUCUAAGAGACAGCUUCCAACAGGCCGUGAAAUUAAAAGGCCAAGUGCUGUCUGUCAUGUUCCGGUUCCGGUCUAAGAACCAAGAAUGGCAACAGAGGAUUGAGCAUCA,0.162 ratio
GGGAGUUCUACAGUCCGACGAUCGAUGGGGGCCUUGUUUUGUUUUGUUUUGGUUUUUGGAGACAGGGUCUCACUGUGUAGUCCCCGCUGGCCUGGAACUCACUAUGUAGAUCAGGCUGGACUGAACUCACAAAGAUCCACCUGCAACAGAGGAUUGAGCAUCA,0.249 ratio

# Study 3
# Target: Centromere-binding protein 1, full length, N-terminal tag (CBF1, Saccharomyces cerevisiae, UniProt P17106, residues 1-351)
# Chain of UniProt P17106 (whole entry, looked up): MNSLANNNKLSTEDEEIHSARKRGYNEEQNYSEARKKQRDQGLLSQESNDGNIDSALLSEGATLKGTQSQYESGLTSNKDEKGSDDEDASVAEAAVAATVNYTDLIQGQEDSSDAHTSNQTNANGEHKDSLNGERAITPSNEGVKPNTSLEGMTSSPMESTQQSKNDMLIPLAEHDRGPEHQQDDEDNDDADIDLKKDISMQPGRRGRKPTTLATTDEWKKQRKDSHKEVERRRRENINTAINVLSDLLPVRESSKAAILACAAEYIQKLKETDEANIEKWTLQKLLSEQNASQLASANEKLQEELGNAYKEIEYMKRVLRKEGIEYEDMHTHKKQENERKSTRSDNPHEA
# Technique: protein-binding microarray
# Form: double-stranded DNA, one strand shown
# Sample: in vitro
# Tested at: 0.8 µM
# Notes: whole 60-bp probe, no competitor
# Reading: higher = stronger binding
Sequence,fluorescence intensity [a.u.]
TGTACGAAGCTATAACATGTGAATATAGTAGTTAGGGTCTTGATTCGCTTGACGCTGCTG,661
GAACAGAAGGATTCTCACCTGGTTGCAACCATATAGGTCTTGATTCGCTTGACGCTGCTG,504
GAATGCTGCTATGCGCACGATGAGCAAATCGGATAGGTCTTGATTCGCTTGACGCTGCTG,502
GAAGAGCACACACGTGATGTGTCGTGAACTGTGTAGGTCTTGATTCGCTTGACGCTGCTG,11300
CTAAAACAACAAAGCCATGTGATATCAGTCATTTTCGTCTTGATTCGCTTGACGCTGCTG,1230
GAACATATCAAGAGACACGTCACGACACAACACTAGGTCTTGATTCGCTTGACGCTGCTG,926
CTAACCACATAATTCCACGTTGGCGGCATCACTTTCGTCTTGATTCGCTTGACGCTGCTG,535
CTATCTCTCAGCCGCCATCACTTCCACACAGGCTTCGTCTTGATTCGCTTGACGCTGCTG,524
TGTACGAAGCTATATCTGATGATTATAGTAGTTAGGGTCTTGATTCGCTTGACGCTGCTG,517
GAACTCTCAGCAGGTCATCACACATATACTTCCTAGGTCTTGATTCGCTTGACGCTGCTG,564
GAAACAAACAGCAACCACGTTCATAGTCTGAAATAGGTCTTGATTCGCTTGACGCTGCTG,550
GAATCAGCACCTGCATAGGTGACCCTCTTTGGCTAGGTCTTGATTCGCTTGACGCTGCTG,536
GAAAACCAATCATGTCACGTAGTGAATTTACTTTAGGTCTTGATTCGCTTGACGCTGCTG,724
GAAGGTTACAAAATTCACATCATGAGTTTACGGTAGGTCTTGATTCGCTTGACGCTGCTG,543
CTATAATTTACACATCATGTACTTTTCTGCATCTTCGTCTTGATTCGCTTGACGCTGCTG,548

# Study 4
# Target: CCNB3, cyclin fold, Cln2 fusion (human)
# Technique: yeast growth competition, sequencing
# Sample: yeast
# Notes: weak parent motif
# Baseline: not given
# Reading: higher = stronger binding
# Starting sequence: WEE1 docking peptide (human); HKTFRKLRLFDTP
Change,normalised enrichment score
YKTFRKLRLFDTP [H1Y],0.047
HKTFRTLRLFDTP [K6T],-0.117
HKTFRKLRLPDTP [F10P],0.489
HKTFRKLRLFDHP [T12H],0.531
HKTFRKLRLFETP [D11E],-0.00569
HKTFRKLRLFKTP [D11K],0.0482
HKTFRKLRLFNTP [D11N],-0.666
IKTFRKLRLFDTP [H1I],1.12
HKTFRKLWLFDTP [R8W],0.629
HKTFRKLRYFDTP [L9Y],0.309
HKTRRKLRLFDTP [F4R],0.112
HETFRKLRLFDTP [K2E],0.512
HKTFRKLYLFDTP [R8Y],0.918
HITFRKLRLFDTP [K2I],0.106
HKTFRKLRLFRTP [D11R],0.117
HKTFRKLRLNDTP [F10N],-0.0938
HKTFRKLRLFVTP [D11V],-0.144
HKTFRKLRLFLTP [D11L],0.395
HTTFRKLRLFDTP [K2T],0.465
HKTFRDLRLFDTP [K6D],0.518
HKTFRKLRDFDTP [L9D],0.243
HKTFRKLRLFDGP [T12G],0.479
HKTQRKLRLFDTP [F4Q],0.194

# For quick reference, copied from above (study 1):
Sequence,RBNS enrichment (R)
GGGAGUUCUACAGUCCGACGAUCCAAAUUUUAAGUCUUUCCCAGGUAUGUCAGUCGAGUUGCCAUGAAUCCUCACCUGUAGGAGUUUCUGGGAUUCAUUUUAAGGAAACUGGAAGAAAAUUAAUGUUUUAAUGUGGAAUUCUCGGGUGCCAA,0.733
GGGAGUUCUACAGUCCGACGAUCUUUUGAACGUUGGGUUUUUUGUUGGAAGAAACUUGGAUGAAUCUGUCAUGUCAUUAACAGAACUGAAAUAUUCUAUUGUAAGACGUGCAUUUGCGGUUAGAAUGGUCUUGUGGAAUUCUCGGGUGCCAA,1.11
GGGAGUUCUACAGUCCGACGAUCUAGGCCCGAGCUGCAUUGCCGGCCUUCCUCGGGCCAACUGGCAGCCCAGGAGUGGGGAGGCUUUGGCCAGGGAUGCUGCCACUUGUGCGUGAGUCCGCGGCUGGCCCUUGUGGAAUUCUCGGGUGCCAA,0.336
